Published values collected from several papers.
Lines come from different studies, so protocols differ. ± gives the spread as reported.
PPARG ligand-binding domain: Peroxisome proliferator-activated receptor gamma, ligand-binding domain (PPARG, Homo sapiens, UniProt P37231)
Rhomboid protease AarA: Rhomboid protease AarA (Providencia stuartii, UniProt P46116)
UniProt P46116, sequence (whole entry, looked up): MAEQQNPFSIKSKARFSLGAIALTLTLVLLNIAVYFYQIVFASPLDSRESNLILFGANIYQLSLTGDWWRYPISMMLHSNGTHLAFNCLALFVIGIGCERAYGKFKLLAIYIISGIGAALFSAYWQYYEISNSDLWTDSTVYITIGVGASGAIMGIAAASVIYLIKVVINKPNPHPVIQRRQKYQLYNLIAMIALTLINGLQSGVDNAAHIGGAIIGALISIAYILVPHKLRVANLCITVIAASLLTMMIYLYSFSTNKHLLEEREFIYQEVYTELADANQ
PPARG: Peroxisome proliferator-activated receptor gamma (PPARG, Homo sapiens, UniProt P37231)
UniProt P28064, sequence (whole entry, looked up): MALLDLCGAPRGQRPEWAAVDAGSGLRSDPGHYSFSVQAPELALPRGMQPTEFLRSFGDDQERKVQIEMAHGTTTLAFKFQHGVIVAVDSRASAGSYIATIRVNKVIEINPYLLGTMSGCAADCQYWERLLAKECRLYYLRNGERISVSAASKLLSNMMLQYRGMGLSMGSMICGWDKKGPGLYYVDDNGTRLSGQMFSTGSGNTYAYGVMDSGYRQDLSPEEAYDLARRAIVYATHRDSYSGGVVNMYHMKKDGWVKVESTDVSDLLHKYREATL
UniProt Q92847, sequence (whole entry, looked up): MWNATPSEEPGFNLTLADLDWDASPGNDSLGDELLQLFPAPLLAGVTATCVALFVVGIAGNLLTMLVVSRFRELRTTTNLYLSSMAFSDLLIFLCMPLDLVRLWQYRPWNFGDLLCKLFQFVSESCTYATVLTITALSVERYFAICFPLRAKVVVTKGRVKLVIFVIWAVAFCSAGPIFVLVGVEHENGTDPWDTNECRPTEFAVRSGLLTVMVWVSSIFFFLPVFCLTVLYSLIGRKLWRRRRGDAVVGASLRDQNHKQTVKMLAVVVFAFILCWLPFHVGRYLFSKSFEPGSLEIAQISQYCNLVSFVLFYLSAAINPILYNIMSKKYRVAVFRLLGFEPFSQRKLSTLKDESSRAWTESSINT
UniProt Q13547, sequence (whole entry, looked up): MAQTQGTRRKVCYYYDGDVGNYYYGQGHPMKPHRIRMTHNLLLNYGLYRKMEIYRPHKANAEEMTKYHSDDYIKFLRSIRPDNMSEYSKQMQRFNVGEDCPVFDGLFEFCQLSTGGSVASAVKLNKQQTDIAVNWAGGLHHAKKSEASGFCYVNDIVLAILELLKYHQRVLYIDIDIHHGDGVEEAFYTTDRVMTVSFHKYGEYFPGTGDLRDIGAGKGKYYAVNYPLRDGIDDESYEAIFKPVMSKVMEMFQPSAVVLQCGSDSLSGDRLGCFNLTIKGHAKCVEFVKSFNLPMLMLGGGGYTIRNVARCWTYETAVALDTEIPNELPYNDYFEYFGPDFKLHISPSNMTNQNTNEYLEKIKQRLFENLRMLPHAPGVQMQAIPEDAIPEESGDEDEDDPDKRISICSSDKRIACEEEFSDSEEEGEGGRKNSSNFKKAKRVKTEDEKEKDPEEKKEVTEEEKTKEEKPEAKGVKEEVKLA
UniProt P18421, sequence (whole entry, looked up): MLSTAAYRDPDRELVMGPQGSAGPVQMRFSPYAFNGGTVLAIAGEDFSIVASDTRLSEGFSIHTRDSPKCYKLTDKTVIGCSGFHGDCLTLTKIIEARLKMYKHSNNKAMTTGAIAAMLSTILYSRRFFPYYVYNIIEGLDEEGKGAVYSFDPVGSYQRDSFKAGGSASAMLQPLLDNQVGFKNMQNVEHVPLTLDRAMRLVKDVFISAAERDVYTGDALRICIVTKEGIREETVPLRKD
UniProt P25779, sequence (whole entry, looked up): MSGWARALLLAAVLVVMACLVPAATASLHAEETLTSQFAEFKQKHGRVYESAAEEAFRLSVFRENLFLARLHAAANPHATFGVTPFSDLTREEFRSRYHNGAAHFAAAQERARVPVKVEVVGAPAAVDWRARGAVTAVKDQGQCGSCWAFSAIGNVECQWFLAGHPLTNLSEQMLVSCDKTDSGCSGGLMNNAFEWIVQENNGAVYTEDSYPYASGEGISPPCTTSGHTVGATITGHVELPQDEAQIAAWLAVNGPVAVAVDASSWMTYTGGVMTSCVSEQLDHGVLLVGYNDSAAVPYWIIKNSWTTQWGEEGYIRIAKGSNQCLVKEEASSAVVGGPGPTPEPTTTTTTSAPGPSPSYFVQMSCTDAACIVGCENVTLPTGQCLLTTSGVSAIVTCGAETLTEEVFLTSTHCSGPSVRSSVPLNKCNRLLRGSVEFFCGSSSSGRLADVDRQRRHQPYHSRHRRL

Compound | tested on | test | test system | conditions | how to read | endpoint | result
COC1CN([C@H]2CC[C@H]([C@@]3(C)Oc4c(Cl)cc(C(=O)NCc5c(SC)cc(C)[nH]c5=O)c(C)c4O3)CC2)C1 | – | RNA-seq, refers to: RFX2 | human, whole blood | dose not given, 24 h | relative to: pretreatment baseline | log2 fold change | 1.2
Cc1nnc(C(C)C)n1C1CC2CCC(C1)N2CCC(NC(=O)COCCOCCOCCOCCNC(=O)Cc1ccc(-c2nncnn2)cc1)c1ccccc1 (stereo not shown) | C-C chemokine receptor type 5 (CCR5, Homo sapiens, UniProt P51681) | calcium mobilization, antagonist | HEK-293T | 2 h preincubation, top constrained to 1, together with: 0.1 µM PSC-RANTES | – | IC50 | 29.5 nM
Cc1c(Cc2cccc(OC(C)(C)C(=O)O)c2)c2ccc(C(=O)N[C@@H](C)c3cccc(C(C)(C)C)c3)cc2n1CC(C)(C)C | PPARG ligand-binding domain | reporter gene, luciferase reporter | HEK293T, Gal4-PPARγ LBD | – | – | IC50 | 5510 nM
CC1(C)CCC(CN2CCN(c3ccc(C(=O)NS(=O)(=O)c4ccc(NCC5CCOCC5)c([N+](=O)[O-])c4)c(Oc4cnc5[nH]ccc5c4)c3)CC2)=C(c2ccc(Cl)cc2)C1 | Induced myeloid leukemia cell differentiation protein Mcl-1 (MCL1, Homo sapiens, UniProt Q07820) | binding, inhibitor, TR-FRET competition | – | – | – | IC50 | > 10000 nM
Cc1cccc(C)c1NC(=O)C(C(F)(F)F)C(F)(F)F | Rhomboid protease AarA | enzyme activity, inhibitor, fluorescence | – | – | – | IC50 | 16700 nM
Cc1c(Cc2cccc(OC(C)C(=O)O)c2)c2ccc(C(=O)NC(C)c3ccc(C(C)C)cc3)cc2n1C (mixture of isomers) | PPARG | ligand displacement, TR-FRET | – | – | – | IC50 | 42 nM
Cc1nc2c(F)cc(-c3nc(Nc4ccc(NC(=O)CCCCCCC(=O)NO)nc4)ncc3F)cc2n1C(C)C | Histone deacetylase 1 (HDAC1, Homo sapiens, UniProt Q13547) | enzyme activity, inhibitor | – | – | – | IC50 | 6.9 nM
CC(C)(C)c1ccc(C2CC(=O)N2S(=O)(=O)c2cccc(Cl)c2)cc1 (stereo not shown) | Rhomboid protease AarA | enzyme activity, inhibitor, fluorescence | – | – | – | IC50 | 40000 nM
CN1CCCNC(=O)c2cccc(c2)C(=O)NCCCN(C)CCCNc2cccc3c2C(=O)c2cccc(c2C3=O)NCCC1 | SAS | annexin V/PI staining | – | 5 µM, 24 h, mean | – | apoptotic cells | 26.4%
Fc1ccc(Nc2nc(NC3CCCCC3)c3cc(Br)ccc3n2)cc1F | Beta-2 adrenergic receptor (ADRB2, Homo sapiens, UniProt P07550, V152G) | β-arrestin2 recruitment, antagonist, BRET | HEK293 | mutant V152G, together with: isoprenaline 1 µM | – | IC50 | 501 nM
Cc1c(Cc2ccc(F)c(OC(C)C(=O)O)c2)c2ccc(C(=O)NC(C)c3ccc(C(C)(C)C)cc3)cc2n1CC1CCC1 (stereo not shown) | PPARG | ligand displacement, TR-FRET | – | – | – | IC50 | 0.96 nM
O=C1C2CC3CC1CC(C(=O)N1CCN(c4ccc([N+](=O)[O-])c5ncccc45)CC1)(C3)C2 | Salmonella typhimurium | Ames test | TA97a | 0.78 µg/well, with S9 | – | mean revertant colonies | 29 colonies/well
CCOc1ccccc1CNC(=O)C(C(F)(F)F)C(F)(F)F | Rhomboid protease AarA | enzyme activity, inhibitor, fluorescence | – | – | – | IC50 | 7000 nM
COc1ccc(C(=O)c2c(C(=O)NCCCN(C)C)oc3ccc(Cl)cc3c2=O)cc1OC | Growth hormone secretagogue receptor type 1 (GHSR, Homo sapiens, UniProt Q92847) | ligand displacement, radioligand | – | cell membranes | – | IC50 | 1580 nM
Cc1c(Cc2cccc(OC(C)(C)C(=O)O)c2)c2ccc(C(=O)N[C@@H](C)c3cccc(OC(F)(F)F)c3)cc2n1C | PPARG ligand-binding domain | reporter gene, luciferase reporter | HEK293T, Gal4-PPARγ LBD | – | – | IC50 | 1530 nM
CCCC[C@H](NC(=O)CCCCCCCNC(=O)CN1CCN(CC(=O)O)CCN(CC(=O)O)CC1)C(=O)N[C@H]1CC(=O)NCCCC[C@@H](C(N)=O)NC(=O)[C@H](Cc2c[nH]c3ccccc23)NC(=O)[C@H](CCCNC(=N)N)NC(=O)[C@@H](Cc2ccccc2)NC(=O)[C@H](Cc2c[nH]cn2)NC1=O [technetium-99m labelled] | – | – | C57 mouse, stomach | intravenous, 0.037 MBq, 0.5 h | – | tissue uptake | 3.52 ± 2.78 %ID/g
Cn1c(C(=O)NCCN2CCCCCC2)cc2c(=O)n(C)c3ccccc3c21 | Cruzipain (Trypanosoma cruzi, UniProt P25779) | enzyme activity, inhibitor | – | – | – | IC50 | 25000 nM
O=C(Nc1ccccc1OC1CCCC1)C(C(F)(F)F)C(F)(F)F | Rhomboid protease AarA | enzyme activity, inhibitor, fluorescence | – | – | – | IC50 | 1800 nM
CCC1(CC)CC(=O)N(C2CCOc3ccc(C(=O)NC4CC(C)(C)Oc5ccccc54)cc32)C(=N)N1 (stereo not shown) | Sodium channel protein type 5 subunit alpha (SCN5A, Homo sapiens, UniProt Q14524) | ion current, inhibitor, patch clamp | HEK293 | pH 7.3 | – | IC50 | 4600 nM
N=C(N)NCCC[C@@H]1NC(=O)[C@H](CCCCNC(=S)Nc2ccc(CC3CN(CC(=O)O)CCN(CC(=O)O)CCN(CC(=O)O)CCN3CC(=O)O)cc2)NC(=O)[C@@H](Cc2ccc(O)cc2)NC(=O)[C@H](CC(=O)O)NC(=O)CNC1=O (stereo partly shown) [actinium-225 labelled] | – | – | mice with U-87 MG tumour, tumour | dose not given | – | initial activity A0 | 0.0021 µCi
C=CC(=O)Nc1cccc(Cn2ncc3cnc(Nc4cnn(CCOC)c4)nc32)c1 | DRAK2 human | binding, KINOMEscan | – | 100 nM | lower = stronger binding | percent of control | 1.8%
Cc1c(Cc2ccc(Cl)c(OC(C)C(=O)O)c2)c2ccc(C(=O)NCc3ccc(C(C)(C)C)cc3)cc2n1CC(C)C (stereo not shown) | PPARG | ligand displacement, TR-FRET | – | – | – | IC50 | 1.93 nM
Cc1ccc(CNC(=O)[C@@H]2Cc3cccc(c3)Oc3cccc(c3)C[C@H](N)C(=O)N[C@@H](CCc3ccccc3)C(=O)N2)cc1 | Psmb1/Psmb8 (Rattus norvegicus, UniProt P18421+P28064) | enzyme activity, inhibitor | – | together with: Ac-ANW-aminocoumarin, PA28α 12 nM | – | IC50 | 56000 nM
Nc1ncc(-c2cc(-c3cnn(CC(F)(F)F)c3)ncc2F)nc1C(=O)NC1CNCC(F)C1 (stereo not shown) | CLK1 | KINOMEscan | – | 1 µM | relative to: DMSO control | remaining binding | 35%
Cc1ncsc1-c1ccc(C(C)NC(=O)C2CC(O)CN2C(=O)C(NC(=O)CCCCCCCCCCN2CCCC(Nc3ncc(Cl)c(Nc4ccccc4S(=O)(=O)C(C)C)n3)C2)C(C)(C)C)cc1 (stereo not shown) | 22Rv1 | RNA-seq, refers to: ZNF773 mRNA | – | concentration not given | relative to: DMSO | log2 fold change | -1.82

Some of these lines once more:
Compound | tested on | test | test system | conditions | how to read | endpoint | result
O=C1C2CC3CC1CC(C(=O)N1CCN(c4ccc([N+](=O)[O-])c5ncccc45)CC1)(C3)C2 | Salmonella typhimurium | Ames test | TA97a | 0.78 µg/well, with S9 | – | mean revertant colonies | 29 colonies/well
CCOc1ccccc1CNC(=O)C(C(F)(F)F)C(F)(F)F | Rhomboid protease AarA | enzyme activity, inhibitor, fluorescence | – | – | – | IC50 | 7000 nM
